Experimental data collected from several papers.
± gives the spread as reported.

C(=C/c1ccccc1)/c1ccccc1  EC50 (HL-60; apoptosis, flow cytometry, refers to: caspase-3 activity; 24 h, 50% apoptosis induction): 31 µM
CCC(=C(c1ccc(Cl)cc1)c1ccc(OCCCN(C)C)cc1)c1ccc(OC)cc1  growth inhibition (NCI-60 tumour cell lines; 10 µM, mean over cell lines): 44.3%
FC(F)(F)c1ccnc(-c2cc(C(F)(F)F)ccn2)c1.FC(F)(F)c1ccnc(-c2cc(C(F)(F)F)ccn2)c1.[Cl-].[Cl-].[Ru+2].c1csc(-c2ccc(-c3ccc(-c4ccc(-c5nc6c7cccnc7c7ncccc7c6[nH]5)s4)s3)s2)c1  phototherapeutic index (SK-MEL-28; cell viability; hypoxia, with: green light 523 nm; relative to: dark EC50 over light EC50): 90
CO[C@@H]1[C@H](N(C)C(=O)c2ccccc2)C[C@H]2O[C@]1(C)n1c3ccccc3c3c4c(c5c6ccccc6n2c5c31)C(=O)NC4  viable CD19+ B cells (CLL patient B cells; flow cytometry; human; 100 nM; relative to: untreated): 17%
COc1cc(CNC(=O)C[C@H](C)CCC=C(C)C)ccc1OCc1cn(-c2ccc(Cl)c(Cl)c2)nn1  growth percent (SR leukaemia cells; SRB; 10 µM, 48 h): 27.1%
CC(C)=CCC1CC(=O)C(C)=CC2C=C(C)CC(c3ccccc3)C2C(=O)C2=C(O)C(C)(CC=C1C)C(=O)C(C)(C)C2=O (stereo not drawn)  4E-BP1 phosphorylation (HEp-2; western blot; 10 µM): decreased
COc1cc(CNC(=O)C[C@H](C)CCC=C(C)C)ccc1OCc1cn(-c2ccccc2F)nn1  growth percent (HCC 2998; SRB; 10 µM, 48 h): 101%
Cc1cnc(NC(=O)c2cc(S(=O)(=O)N(C)C)ccc2N2CCCC2)s1  PTK7 and MET N-glycosylation (HCC827 and HCC827-GR; Western blot, refers to: PTK7, MET, STAT3 signalling; 10 µM, 24 h): decreased
CCN(CC)CCOc1ccc(C(=C(C)c2ccc(Cl)cc2)c2ccc(Cl)cc2)cc1  growth inhibition (NCI-60 tumour cell lines; 10 µM, mean over cell lines): 34.1%
CC(=O)O[C@H]1CC[C@]2(C)[C@H]3C(=O)C=C4[C@@H]5C[C@@](C)(C(=O)OCc6ccccc6)CC[C@]5(C)CC[C@@]4(C)[C@]3(C)CC[C@H]2C1(C)C  MDC fluorescence intensity (HepG2; autophagy, flow cytometry; 8 µM, 24 h, unit not given; relative to: untreated): 1910
COc1cc(CNC(=O)C[C@H](C)CCC=C(C)C)ccc1OCc1cn(-c2ccc(Br)cc2)nn1  growth percent (HCC 2998; SRB; 10 µM, 48 h): 95.8%
Cc1cc(/N=N/c2ccc(/N=N/c3ccc(O)c(C(=O)O)c3)cc2)c(N)cc1N  mRNA level (primary mouse articular chondrocytes; real-time PCR, refers to: Sox9; 25 µM, micromass culture): increased
CC(C)C[C@@H]1NC(=O)[C@H](CC(C)C)NC(=O)[C@H](Cc2ccccc2)NC(=O)[C@@H]2CSSC[C@@H](C(=O)O)NC(=O)[C@H](CSSC[C@H](N)C(=O)N3CCC[C@H]3C(=O)N2)NC(=O)CNC1=O  cell adhesion (THP-1; inhibitor; concentration not given, with: fibronectin): no inhibition
C=CC(=O)Nc1cc(Nc2nccc(-c3c(-c4cccc(F)c4)n(C)c4ccccc34)n2)c(OC)cc1N(C)CCN(C)C  protein level (H1975; Western blot, refers to: Bax; concentration not given, 24 h): increased
O=C(/C=C/c1cccc(S(=O)(=O)Nc2ccc(F)cc2)c1)NO  relative potency (MOPC-315; cell growth; 24 h; relative to: belinostat): 1.02
Cc1ccc(-c2cn([C@H]3C[C@H](O)[C@@H](CO)O3)c3ncnc(N)c23)cc1  EC50 (HEK; cytotoxicity): > 200 µM
CC(=O)OC[C@H]1O[C@@H](Sc2sc(C(=O)c3ccc(Br)cc3)c(N)c2-c2nc3ccccc3s2)[C@H](OC(C)=O)[C@@H](OC(C)=O)[C@@H]1OC(C)=O  growth percent (MDA-MB-231 breast cancer; SRB; 10 µM, 48 h): 84.1%
Cc1c(C(=O)NNC(=S)Nc2ccc(Cl)cc2)nnn1Cc1nc2ccccc2[nH]1  cells in G2/M phase (HepG2; PI flow cytometry; concentration not given): 14%
Cc1cccc(O[C@H]2CCC[C@@H](C(C)CNCc3ccncc3)C2)c1 (relative stereo)  NADPH level (MC65 Tet-Off cells; concentration not given, dose-dependent): increased
CC1=CC(OC(=O)c2ccccc2)C2(COC(=O)c3ccccc3)CCC(=C(C)C)C2C(O)CC2(C)OC2CC1 (stereo not drawn)  glucose consumption (HepG2, palmitic acid-induced insulin resistance; 10.0 µM, 24 h): 4.71 ± 0.17 mM
CC/C=C\C/C=C\C/C=C\C/C=C\C/C=C\C/C=C\CCC(=O)Nc1ccn(C2OC(CO)C(O)C2(F)F)c(=O)n1 (stereo not drawn)  TGI (M14; NCI60 screen): 0.21 µM
O=C1Nc2ccc(Cl)cc2C1=Cc1c(Cl)[nH]c2c1ccc1ccccc12  TGI (leukaemia subpanel of NCI-60; 48 h): 7.24 µM
O=C(/C=C/c1cccc(S(=O)(=O)Nc2ccc(F)cc2F)c1)NO  relative potency (MOPC-315; cell growth; 24 h; relative to: belinostat): 0.405
Nc1ncc(-c2cnn(C3CCNCC3)c2)cc1-c1nc2ccc(O)cc2o1  PARP cleavage (HEL 92.1.7; western blot; concentration not given, 24 h; relative to: untreated): increased
C[C@@H](NC(=O)Cc1ccc(Cl)c(SC2C(=O)CC(c3c(Cl)cccc3Cl)CC2=O)c1)c1cccc2ccccc12 (stereo partly drawn)  concentration of maximal ROS induction (B16-F10; 24 h): 25 µM
Nc1ncnc2c1c(-c1ccc(F)c(F)c1)cn2[C@@H]1O[C@H](CO)[C@@H](O)[C@H]1O  EC50 (HEK; cytotoxicity): > 200 µM
CC[C@H](C)[C@H](NC(=O)[C@@H](NC(=O)[C@@H](N)C(C)C)C(C)C)C(=O)N[C@@H](C)C(=O)O  viability (PC-12; Aβ42-induced neurotoxicity, inhibitor, MTT; concentration not given, 6 h, 37 °C, peptide to Aβ42 1:2, with: Aβ42 2 µM; relative to: untreated cells): 90.5%
COc1cc([C@@H]2OC[C@@H]3[C@H]2CO[C@H]3c2cc(OC)c(O)c(OC)c2)cc(OC)c1O  glucose consumption (HepG2, palmitic acid-induced insulin resistance; 10.0 µM, 24 h): 8.25 ± 0.34 mM
O=Cc1c(O)ccc2ccccc12  log2 fold change (HUVEC; RNA sequencing, refers to: GDF3; 75 µM, 24 h; relative to: DMSO): -2.92
O=[N+]([O-])c1ccc(C=[N+]2N=C(Nc3ccccc3)[S][Pt-]2([Cl])[Cl])s1  cytotoxic concentration (HEL human lung fibroblasts; altered cell morphology, microscopy; confluent cultures): 20 µM
COc1ccc(CC(C)=C(c2ccc(Cl)cc2)c2ccc(OCCCN(C)C)cc2)cc1  growth inhibition (NCI-60 tumour cell lines; 10 µM, mean over cell lines): 31.5%
S=C(N/N=C/c1ccc(-c2ccccc2)s1)Nc1ccccc1  cytotoxic concentration (HEL human lung fibroblasts; altered cell morphology, microscopy; confluent cultures): ≥ 100 µM
CCCC(CCC)C(=O)[O][Pt]([NH2])([NH2])([Cl])([Cl])[O]C(=O)c1ccccc1OC(C)=O  selectivity index (HEK293 and LoVo; cytotoxicity, MTT; relative to: IC50 HEK293 over IC50 LoVo): 0.6
COc1cc(CNC(=O)C[C@H](C)CCC=C(C)C)ccc1OCc1cn(-c2cccc(C(F)(F)F)c2)nn1  growth percent (Malme-3M melanoma cells; SRB; 10 µM, 48 h): 80.8%
CC(Cc1ccc(Cl)cc1)=C(c1ccc(Cl)cc1)c1ccc(OCCN2CCCCCC2)cc1  growth inhibition (NCI-60 tumour cell lines; 10 µM, mean over cell lines): 17%
O=C(NCCCCc1ccccc1)n1c(=O)oc2cc(-c3ccc(F)cc3)ccc21  dihydroceramide d18:0/16:0 level (SW-403 and RAW264.7; 0.1 to 20 µM, 3 h): increased
CC(=NN=c1sc(C(=O)c2ccccc2)nn1-c1ccccc1)c1ccc(S(=O)(=O)N2CCC(C)CC2)cc1  cells in %G2/M (HepG2; flow cytometry; 3.31 µM, 72 h): 38.5%
Cc1cc(-c2ccccc2)c2ccc3c(-c4ccccc4)cc(C)nc3c2n1.[Cl-].[Cl-].[Ru+2].c1ccc(-c2ccccn2)nc1.c1ccc(-c2ccccn2)nc1  early apoptotic cells (B16-F10; annexin V/PI; 10 µM, 24 h, dark): ~26%
COc1ccc(-c2cc(C(F)(F)F)nc(SCC(=O)N(C)c3ccccc3)n2)cc1  insulin secretion (rat INS-1 832/13 cells; 20 µM, no GLP-1, with: 15 mM glucose; relative to: DMSO): increased
CCOC(=O)c1nc2cc(Cl)c(Cl)cc2nc1N1CCN(C(=O)Nc2ccc(N3CCNCC3)cc2)CC1  lactate production (RAW264.7, resting; 5 µM): no effect
CC(C)(C)CC(C)(C)Nc1c(-c2ccc3c(c2)OCO3)nc2cnccn12  cell migration (CT26; scratch; 25 µM, 24 h; relative to: untreated): 44.4%
CCCC[C@H](C)[C@H]1CC[C@H]2/C(=C/C=C3C[C@@H](O)C(C)[C@H](O)C3)CCC[C@]12C (stereo partly drawn)  EC50 ratio (HL-60; cell differentiation, NBT reduction; relative to: compound over 1α,25-dihydroxyvitamin D3): 10
Nc1c(S(=O)(=O)O)cc(Nc2cccc(S(N)(=O)=O)c2)c2c1C(=O)c1ccccc1C2=O  protein level (primary mouse articular chondrocytes; western blot, refers to: Phlpp2; micromass culture; 25 µM, dosed days 4–6 and 4–9): decreased
COc1cc(CNC(=O)C[C@H](C)CCC=C(C)C)ccc1OCc1cn(-c2cccc([N+](=O)[O-])c2)nn1  growth percent (SR leukaemia cells; SRB; 10 µM, 48 h): 82%
CCCCn1c2ccccc2c2ccnc(-c3ccc(OC)cc3)c21  viability inhibition (PC-12; 200 µM, 48 h): 58 ± 5.39%
C[C@@H]1O[C@@H](O[C@H]2[C@H](O[C@H]3CC[C@@]4(C)C(CC[C@]5(C)C4CC=C4C6CC(C)(C)CC[C@]6(C(=O)O[C@@H]6O[C@H](CO)[C@@H](O)[C@H](O)[C@H]6O)CC[C@]45C)[C@]3(C)CO)OC[C@H](O)[C@@H]2O)[C@H](O)[C@H](O[C@@H]2OC[C@@H](O)[C@H](O)[C@H]2O)[C@H]1O (stereo partly drawn)  glucose consumption (HepG2, palmitic acid-induced insulin resistance; 2.5 µM, 24 h): 5.67 ± 0.76 mM
CC1CCCN(CCCNC(=O)C2=Cc3sc4c(c3CS2)CCCC4)C1 (stereo not drawn)  esterified cholesterol (COLO 320; 20 µM, 48 h; relative to: vehicle): 1.6 fold
COc1ccc([C@@H]2CC(=O)c3c(O)cc(O[C@@H]4O[C@H](CO[C@@H]5O[C@@H](C)[C@H](O)[C@@H](O)[C@H]5O)[C@@H](O[C@H]5O[C@H](CO)[C@@H](O)[C@H](O)[C@H]5O)[C@H](O)[C@H]4O)cc3O2)cc1O  cell count (A549; trypan blue exclusion; 50 µg/mL, 72 h): 27500 ± 412
COc1cc(CNC(=O)C[C@H](C)CCC=C(C)C)ccc1OCc1cn(-c2ccccc2)nn1  growth percent (SF-295 CNS cancer cells; SRB; 10 µM, 48 h): 88.2%
CCN(CC)CCOc1ccc(C(=C(C)Cc2ccc(Cl)cc2)c2ccc(Cl)cc2)cc1  growth inhibition (NCI-60 tumour cell lines; 10 µM, mean over cell lines): 17.1%
COc1cc(CNC(=O)C[C@H](C)CCC=C(C)C)ccc1OCc1cn(-c2ccc([N+](=O)[O-])cc2)nn1  growth percent (OVCAR-4 ovarian cancer cells; SRB; 10 µM, 48 h): 63.8%
CC(=O)N[C@H](C(=O)N[C@H](C(=O)N[C@@H](CCCNC(=N)N)C(=O)N1Cc2ccccc2C[C@H]1C(=O)N[C@@H](Cc1ccccc1)C(N)=O)C1CCCCC1)C(C)C  cytokine level (MBP-specific BC-3 T cells; Bio-Plex multiplex, refers to: PDGF-bb; 200 µg/mL, 24 h, with: MBP87-99 antigen): 416 ± 292 pg/mL
COc1cc(CNC(=O)C[C@H](C)CCC=C(C)C)ccc1OCc1cn(-c2cccc(Cl)c2)nn1  growth percent (OVCAR-4 ovarian cancer cells; SRB; 10 µM, 48 h): 106%
CC(C)=C1CC[C@]2(COC(=O)c3ccccc3)[C@@H](OC(=O)c3ccccc3)/C=C(\C)CC[C@@H]3O[C@@]3(C)C[C@@H](OC(=O)c3cccnc3)[C@@H]12  glucose consumption (HepG2, palmitic acid-induced insulin resistance; 2.5 µM, 24 h): 4.77 ± 0.79 mM

Some of these lines once more:
COc1cc(CNC(=O)C[C@H](C)CCC=C(C)C)ccc1OCc1cn(-c2ccccc2F)nn1  growth percent (HCC 2998; SRB; 10 µM, 48 h): 101%
Cc1cnc(NC(=O)c2cc(S(=O)(=O)N(C)C)ccc2N2CCCC2)s1  PTK7 and MET N-glycosylation (HCC827 and HCC827-GR; Western blot, refers to: PTK7, MET, STAT3 signalling; 10 µM, 24 h): decreased
CCN(CC)CCOc1ccc(C(=C(C)c2ccc(Cl)cc2)c2ccc(Cl)cc2)cc1  growth inhibition (NCI-60 tumour cell lines; 10 µM, mean over cell lines): 34.1%
CC(=O)O[C@H]1CC[C@]2(C)[C@H]3C(=O)C=C4[C@@H]5C[C@@](C)(C(=O)OCc6ccccc6)CC[C@]5(C)CC[C@@]4(C)[C@]3(C)CC[C@H]2C1(C)C  MDC fluorescence intensity (HepG2; autophagy, flow cytometry; 8 µM, 24 h, unit not given; relative to: untreated): 1910
COc1cc(CNC(=O)C[C@H](C)CCC=C(C)C)ccc1OCc1cn(-c2ccc(Br)cc2)nn1  growth percent (HCC 2998; SRB; 10 µM, 48 h): 95.8%
Cc1cc(/N=N/c2ccc(/N=N/c3ccc(O)c(C(=O)O)c3)cc2)c(N)cc1N  mRNA level (primary mouse articular chondrocytes; real-time PCR, refers to: Sox9; 25 µM, micromass culture): increased
CC(C)C[C@@H]1NC(=O)[C@H](CC(C)C)NC(=O)[C@H](Cc2ccccc2)NC(=O)[C@@H]2CSSC[C@@H](C(=O)O)NC(=O)[C@H](CSSC[C@H](N)C(=O)N3CCC[C@H]3C(=O)N2)NC(=O)CNC1=O  cell adhesion (THP-1; inhibitor; concentration not given, with: fibronectin): no inhibition
C=CC(=O)Nc1cc(Nc2nccc(-c3c(-c4cccc(F)c4)n(C)c4ccccc34)n2)c(OC)cc1N(C)CCN(C)C  protein level (H1975; Western blot, refers to: Bax; concentration not given, 24 h): increased
O=C(/C=C/c1cccc(S(=O)(=O)Nc2ccc(F)cc2)c1)NO  relative potency (MOPC-315; cell growth; 24 h; relative to: belinostat): 1.02
